Experimental data from different studies.
Each numbered part is a random draw from the data of one study; scales do not carry over between parts. Substitutions count along the parent as printed.

Sample 1
Target: Histone acetyltransferase KAT6A, winged helix 2, GST fusion (KAT6A, Homo sapiens, UniProt Q92794, residues 85-181)
Method: protein binding microarray
Form: double-stranded DNA, one strand shown
Medium: in vitro
Tested at: not given
Notes: 8-mer, flanks averaged, mean of 2 arrays, mostly near background
Relative to: not given
Direction: higher = stronger binding
Construct (chain): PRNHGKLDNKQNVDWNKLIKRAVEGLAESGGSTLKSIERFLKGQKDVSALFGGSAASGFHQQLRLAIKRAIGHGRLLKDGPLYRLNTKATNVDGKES
Oligonucleotide	E-score
AACCCGCG	0.121
ACTCAATC	-0.0388
CGGCCACG	0.131
CCGATCAG	0.0915
ATCAGGCG	0.0226
ATTCAAGG	-0.202
CCCTGCCG	0.157
CGGAGATA	0.0947
ACAAGGAG	-0.117
CAGTTTCA	-0.0512
AAAGCCCA	0.0966
TCGTTTCA	0.0413
AGACGCGG	0.077
CTGCCGCA	0.0108
ATCCAGTC	-0.0986
ATTAGATA	-0.0534
GATCACGA	-0.00673
ACGCCGCG	0.125
CTGCCTCA	-0.054
GATGTTGA	-0.115
ACCACGGC	-0.0248
GCTGAGAA	0.0681
AGCATCCA	0.105
ATCACTAA	-0.0608
CAGATATA	0.00658

Sample 2
Target: RING finger protein unkempt homolog, zinc fingers 1-6, GST-SBP tag (UNK, Homo sapiens, UniProt Q9C0B0, residues 30-357)
Method: RNA Bind-n-Seq
Form: RNA
Medium: in vitro
Tested at: not given
Notes: RNA with constant flanks, human and mouse sites, ends assumed
Relative to: input RNA pool
Direction: higher = stronger binding
Residues (chain): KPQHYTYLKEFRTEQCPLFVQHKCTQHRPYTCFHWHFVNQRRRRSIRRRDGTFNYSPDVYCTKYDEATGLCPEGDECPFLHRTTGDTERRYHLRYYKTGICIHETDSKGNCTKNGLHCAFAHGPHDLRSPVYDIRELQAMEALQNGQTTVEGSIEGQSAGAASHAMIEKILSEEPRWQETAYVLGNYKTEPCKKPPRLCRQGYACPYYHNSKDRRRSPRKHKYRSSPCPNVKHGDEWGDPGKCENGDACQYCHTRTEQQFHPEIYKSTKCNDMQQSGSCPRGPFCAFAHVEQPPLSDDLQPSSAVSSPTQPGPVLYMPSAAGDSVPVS
Oligonucleotide	bound/input enrichment
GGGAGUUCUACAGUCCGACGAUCCUUAUCUUGGUAGCCAAUGCAAUCGUGGGUGUGUGGCAGGAAAGAAAUGCUGAAAAUGCAAUAGAAGCUCUUAAGGAAUAUGAGCCUGAAAUGGGCAAAGUGUAUCGACAGGACAGAAAGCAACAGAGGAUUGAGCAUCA	0.515 ratio
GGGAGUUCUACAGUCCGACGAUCGGCAUGUUGGAUAUGUGCGGCUUUGAUACUGGAGCUCUGGAUGUAAUUCGAAAUUUCACAUUAGAUAUGAUUUAACCAUAAGCAGCAGCACGAUCCAGAGAUCCAUUGCCAUCAGUGAUCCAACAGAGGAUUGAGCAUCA	2.04 ratio
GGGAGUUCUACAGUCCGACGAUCUGAGCUGAGCUACUUGCCAGUCAGAAUGCAGACUUGGAAUCCUGGAUCAGAGACUUGUCACAGACAGAUUCACUAAUCCUAAGUGGAGACUGGAGGGAUCUAAAUAACCCCUCUGUCAUCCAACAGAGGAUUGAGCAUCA	0.0331 ratio
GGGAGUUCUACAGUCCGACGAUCUGUCUCAGGAUGGCAGCACACAGCUCAGAUUCAUGUCUUGAGCCAAACAAGUGAAUGUAUCUGAGAAGACUCAGUACCACAUGGUACUGGGAGAUCUUACUCACUUCAGCUGGCGUUGCUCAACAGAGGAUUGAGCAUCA	0.199 ratio
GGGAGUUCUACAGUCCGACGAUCAGUCCAAGCACAGUUGGAGUGACCAAGAUGACUCUGGGAACACCUCCCACUUUGCCAAACUUCAAUGCUUUGAGUGUUCCUCCUGCUGGUGCAAAGCAGACCCAACAAAGACCCACAGAUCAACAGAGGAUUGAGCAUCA	0.0707 ratio
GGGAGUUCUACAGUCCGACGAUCCUAUAGAGGGAAAUAAUAGACAGAUUAAGAUGAAAGAAAAGCUUUCUGGGAUGAUUCAGUUAUAGGAAAUGCCAAGAAAAGGGCAUUUAAUUAUAAUAUCCUAAUUUUACAUCACAACAUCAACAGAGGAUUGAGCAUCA	0.906 ratio
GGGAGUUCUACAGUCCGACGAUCGGCUAUUUGAAAUAGACUAGAUUGUGUUGUCAAAUCAAGAAUGGGUGUGCAUGUGCUUGUCUUAGAAGUAUCACUGCUUUUUGCAUCUUAACUGCAGUUAAUUUUCCUUCCGACUGCGGUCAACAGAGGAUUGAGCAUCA	0.953 ratio
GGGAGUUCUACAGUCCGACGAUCGUGAACCCAGUGGAAUUCUUCCGCCCUGAUAUUUCUCUGUUGGACAGAGACAAUGUUGGAUUAGUUUUACUCUUACAGCCCAAAAUUCCAUAUGCUGCCUGCCCUGCAAUCUGCGUAGCACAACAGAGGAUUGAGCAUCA	2.45 ratio
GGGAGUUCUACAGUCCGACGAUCUUUGGAGAAAGUGUCAUGGAAGUUCUGCGUCCACAGCUUAUAAGAAUUGAUGGCCGGAAUUACAGGAAGAAUCCAGUCCAAGAACAGACCUAUCAACAUGAAGAAGAUGAAGAGGACUUCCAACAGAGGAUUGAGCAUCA	0.21 ratio
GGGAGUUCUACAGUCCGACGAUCCUGGGUAUUAUUUCUCGAGCUGUUAAACACCUUUUUAAGAGUAUUGAAGAAAAAAAACACAUAGCAAUUAAAAAUGGGCUUCCUGCUCCAGAUUUUAAAGUGAAUGCCCAAUUCUUAGAGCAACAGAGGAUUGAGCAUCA	3.56 ratio
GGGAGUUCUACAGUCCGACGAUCAUAACUUCUAAGGAUAAUUUAGAAGAUGAGACUGAAGAUGAUGACCUAUUUGAAACUGAGUUUAGACAAUAUAAAAGAACAUAUUACAUGACGAAGAUGGGGGUUGACGUAGUAUCUGAUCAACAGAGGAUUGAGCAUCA	1.7 ratio

Sample 3
Target: CCNB2, cyclin fold, Cln2 fusion (human)
Method: yeast growth competition, sequencing
Medium: yeast
Notes: strong parent motif
Relative to: not given
Direction: higher = stronger binding
Starting sequence: E2F1 docking peptide (human); PPVKRRLDFETDH; partner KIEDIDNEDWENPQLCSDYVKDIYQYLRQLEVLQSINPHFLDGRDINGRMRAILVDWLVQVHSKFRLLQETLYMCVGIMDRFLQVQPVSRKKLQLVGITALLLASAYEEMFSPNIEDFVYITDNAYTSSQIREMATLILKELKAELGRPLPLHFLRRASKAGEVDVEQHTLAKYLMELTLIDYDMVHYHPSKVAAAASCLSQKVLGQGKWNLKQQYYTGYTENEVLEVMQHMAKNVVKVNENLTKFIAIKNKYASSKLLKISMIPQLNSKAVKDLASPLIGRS
Change	normalised enrichment score
R5H	0.501
F9Y	0.862
F9V	0.00863
P2I	2.92
R5S	0.325
E10K	1.73
R5N	0.708
V3A	1.06
R5K	2.53
R5T	1.3
T11Y	3.92
K4E	1.18
K4C	2.79
E10W	2.47
K4L	0.308
E10T	3.1
F9C	0.144
K4I	1.76
E10R	2.13
V3C	2.83
E10D	4.09
L7P	0.0692
D12A	3.4

Sample 4
Target: ABI1, truncated, D143A, DHFR fusion (Arabidopsis thaliana)
Method: DHFR PCA, deep sequencing
Medium: yeast
Notes: methotrexate growth selection, single substitutions
With: (+)-ABA 17 µM
Relative to: wild-type fitted maximum
Direction: higher = stronger binding
Starting sequence: PYL1, truncated, DHFR fusion (Arabidopsis thaliana); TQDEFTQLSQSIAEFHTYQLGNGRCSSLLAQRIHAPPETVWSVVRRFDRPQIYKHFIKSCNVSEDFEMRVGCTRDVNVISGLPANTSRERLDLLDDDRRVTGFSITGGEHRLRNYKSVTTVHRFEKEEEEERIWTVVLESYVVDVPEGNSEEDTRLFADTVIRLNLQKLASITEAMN; partner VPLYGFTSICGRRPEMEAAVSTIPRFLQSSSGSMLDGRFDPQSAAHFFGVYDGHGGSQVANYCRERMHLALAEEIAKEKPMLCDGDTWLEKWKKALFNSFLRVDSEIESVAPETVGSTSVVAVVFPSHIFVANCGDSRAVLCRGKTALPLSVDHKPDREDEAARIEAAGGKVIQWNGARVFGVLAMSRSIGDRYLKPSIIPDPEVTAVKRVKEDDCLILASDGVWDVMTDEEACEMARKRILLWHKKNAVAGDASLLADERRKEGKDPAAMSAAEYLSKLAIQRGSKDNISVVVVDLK
Change	relative binding score [%]
R98G	39.2
L82D	-11.3
Q19H	72.4
S140V	0.422
I172D	-16.4
L138G	2.02
S9I	60.3
L93Q	79.8
S11G	64.1
E14K	71
V137H	-23.7
E38P	40.2
E174Y	35.6

Sample 5
Target: Interferon regulatory factor 3, full length, phosphomimetic (IRF3, Homo sapiens, UniProt Q14653, residues 1-427, S386D/S396D/S398D/S402D/T404D/S405D)
UniProt Q14653, sequence (whole entry, unmodified, looked up): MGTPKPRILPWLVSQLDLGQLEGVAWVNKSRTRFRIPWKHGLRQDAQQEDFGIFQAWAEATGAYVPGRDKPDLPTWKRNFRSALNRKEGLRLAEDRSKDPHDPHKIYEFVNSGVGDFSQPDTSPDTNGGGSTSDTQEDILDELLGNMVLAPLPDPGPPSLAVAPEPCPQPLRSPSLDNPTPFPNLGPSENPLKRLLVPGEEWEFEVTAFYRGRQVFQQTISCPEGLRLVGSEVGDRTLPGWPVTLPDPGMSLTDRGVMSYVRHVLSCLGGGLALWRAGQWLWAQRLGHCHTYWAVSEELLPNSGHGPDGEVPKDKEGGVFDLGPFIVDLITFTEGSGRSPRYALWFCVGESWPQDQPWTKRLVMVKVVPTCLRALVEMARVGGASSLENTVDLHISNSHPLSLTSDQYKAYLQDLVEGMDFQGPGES
Method: protein-binding microarray
Form: double-stranded DNA, one strand shown
Medium: in vitro
Tested at: 2540 nM top
Notes: 60-bp whole probe
With: salmon DNA 0.4 mg/ml
Relative to: random background probes
Direction: higher = stronger binding
Constant ends, left off below: GCCTAGCAC … GTCTTGATTCGCTTGACGCTGCTG
Oligonucleotide	fitted relative affinity [z-score]
GACGGTATCCTTTTCGTGACGTGCTAG	7.84
TTAGGTATCGGGTTTCGGTTGGTGCTA	3.18
GGGCCAGCAGCCAGGTGGAGGTGCTAG	-1.73
TGGGCTACCGGGTCCCTCTTGTGCTAG	-0.697
GACGGACTGGACTATCGAGACGTGCTA	-0.558
TTAGATTGCAGTCTCGATTAGTGCTAG	0.94
GACGGTATCGACCCTGGGGACGTGCTA	0.118
TCACATCTCGGAGATCTCACTGTGCTA	0.743
TTAGGTTTCCTTTCCCTTTTGTGCTAG	10.9
GACTGTTCCGGTTTCGGGACGTGCTAG	5.47
TTAGGTCTCGGTTTCAGTTAGTGCTAG	3.12
AGTATGTTCACTATTTAAGGGTGCTAG	0.837
GACGGACTGTACTTTCGGGACGTGCTA	0.731
GACGGTTTCGGAGTGGGGACGTGCTAG	5.12
TTAGGTATCGGATTTCGGTTAGTGCTA	3.93
ACAAATGGCCAACAAACATTGTGCTAG	-0.11
GACGATTTCGGACTGGAGACGTGCTAG	1.84

Further values, each from its own experiment
Substance	target	assay	test system	setting	scale	measurement	result
PhoQ, residues 284 288 289 292 302 303 SLKLQV	PhoP, residues 12 14 15 18 19 HHYTI (Escherichia coli, UniProt P23836)	Sort-seq, refers to: YFP reporter	E. coli	PhoQ-PhoP variant library, with: 10 µM Mg2+	relative to: high Mg2+ state, higher = stronger signaling	fold induction	8.37
